Measured values of several laboratories.
Each line is one published result; not all experiments were run side by side. Values joined by “and” are separate records of one study, mostly repeats; a detail may differ. ± gives the spread as reported.
CHRM4: Muscarinic acetylcholine receptor M4 (CHRM4, Homo sapiens, UniProt P08173)
UniProt P08173, sequence (whole entry, looked up): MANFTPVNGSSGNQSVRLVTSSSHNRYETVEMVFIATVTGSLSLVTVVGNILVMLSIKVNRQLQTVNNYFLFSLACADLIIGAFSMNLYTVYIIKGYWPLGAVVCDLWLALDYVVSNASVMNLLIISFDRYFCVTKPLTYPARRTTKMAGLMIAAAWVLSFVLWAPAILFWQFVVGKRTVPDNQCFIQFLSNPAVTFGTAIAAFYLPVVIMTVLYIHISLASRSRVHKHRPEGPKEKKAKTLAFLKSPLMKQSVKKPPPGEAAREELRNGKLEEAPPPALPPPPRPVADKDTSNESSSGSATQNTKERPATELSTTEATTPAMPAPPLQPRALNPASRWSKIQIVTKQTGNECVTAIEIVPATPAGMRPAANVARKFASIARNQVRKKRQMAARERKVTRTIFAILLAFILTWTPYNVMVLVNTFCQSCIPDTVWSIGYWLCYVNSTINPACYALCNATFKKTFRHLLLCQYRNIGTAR
Kir3.1/Kir3.2: Kir3.1/Kir3.2 (Homo sapiens, UniProt P48051+P48549)
UniProt P48051, sequence (whole entry, looked up): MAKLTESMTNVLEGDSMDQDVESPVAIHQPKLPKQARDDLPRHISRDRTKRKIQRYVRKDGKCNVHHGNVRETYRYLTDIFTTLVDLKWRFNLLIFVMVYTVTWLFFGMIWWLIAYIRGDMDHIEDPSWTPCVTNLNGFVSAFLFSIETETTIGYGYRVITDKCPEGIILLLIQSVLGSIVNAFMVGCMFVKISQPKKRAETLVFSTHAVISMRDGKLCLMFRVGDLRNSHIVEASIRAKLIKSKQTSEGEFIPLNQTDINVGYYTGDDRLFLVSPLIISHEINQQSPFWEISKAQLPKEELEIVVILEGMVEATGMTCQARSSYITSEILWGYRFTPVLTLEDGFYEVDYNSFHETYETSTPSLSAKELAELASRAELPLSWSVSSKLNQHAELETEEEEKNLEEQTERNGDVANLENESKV
UniProt P46089, sequence (whole entry, looked up): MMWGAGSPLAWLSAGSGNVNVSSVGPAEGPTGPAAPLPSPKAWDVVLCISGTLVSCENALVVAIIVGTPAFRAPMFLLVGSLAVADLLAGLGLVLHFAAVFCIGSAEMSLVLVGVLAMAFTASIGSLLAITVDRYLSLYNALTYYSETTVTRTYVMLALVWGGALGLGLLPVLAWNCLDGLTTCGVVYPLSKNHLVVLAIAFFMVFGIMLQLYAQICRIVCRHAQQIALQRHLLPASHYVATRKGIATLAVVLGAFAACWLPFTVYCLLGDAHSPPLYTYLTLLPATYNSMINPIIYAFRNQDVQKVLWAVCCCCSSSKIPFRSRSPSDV
UniProt P48549, sequence (whole entry, looked up): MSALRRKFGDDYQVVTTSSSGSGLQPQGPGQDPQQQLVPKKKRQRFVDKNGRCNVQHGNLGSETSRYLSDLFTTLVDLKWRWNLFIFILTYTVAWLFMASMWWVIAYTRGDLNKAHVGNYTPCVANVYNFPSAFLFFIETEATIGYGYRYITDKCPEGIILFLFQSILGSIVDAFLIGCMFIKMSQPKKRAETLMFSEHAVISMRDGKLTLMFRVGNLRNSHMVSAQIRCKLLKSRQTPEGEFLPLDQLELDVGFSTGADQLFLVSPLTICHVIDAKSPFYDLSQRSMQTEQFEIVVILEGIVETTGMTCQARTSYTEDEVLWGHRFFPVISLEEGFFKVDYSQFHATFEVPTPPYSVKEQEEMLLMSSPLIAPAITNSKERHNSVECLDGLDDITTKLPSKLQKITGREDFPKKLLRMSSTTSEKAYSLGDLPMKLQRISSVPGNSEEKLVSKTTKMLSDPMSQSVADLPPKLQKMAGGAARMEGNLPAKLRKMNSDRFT
UniProt Q8TDU9, sequence (whole entry, unmodified, looked up): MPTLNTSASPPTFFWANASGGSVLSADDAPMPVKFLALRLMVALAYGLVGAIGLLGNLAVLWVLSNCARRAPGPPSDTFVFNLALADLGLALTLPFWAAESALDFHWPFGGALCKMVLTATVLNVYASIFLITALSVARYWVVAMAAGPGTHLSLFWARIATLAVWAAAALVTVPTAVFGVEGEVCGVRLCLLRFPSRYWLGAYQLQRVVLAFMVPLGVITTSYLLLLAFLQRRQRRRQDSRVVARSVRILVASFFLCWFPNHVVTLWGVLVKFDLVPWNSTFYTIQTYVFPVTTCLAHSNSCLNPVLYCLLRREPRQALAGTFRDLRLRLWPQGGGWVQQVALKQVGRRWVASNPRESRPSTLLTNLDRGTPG
UniProt Q92847, sequence (whole entry, unmodified, looked up): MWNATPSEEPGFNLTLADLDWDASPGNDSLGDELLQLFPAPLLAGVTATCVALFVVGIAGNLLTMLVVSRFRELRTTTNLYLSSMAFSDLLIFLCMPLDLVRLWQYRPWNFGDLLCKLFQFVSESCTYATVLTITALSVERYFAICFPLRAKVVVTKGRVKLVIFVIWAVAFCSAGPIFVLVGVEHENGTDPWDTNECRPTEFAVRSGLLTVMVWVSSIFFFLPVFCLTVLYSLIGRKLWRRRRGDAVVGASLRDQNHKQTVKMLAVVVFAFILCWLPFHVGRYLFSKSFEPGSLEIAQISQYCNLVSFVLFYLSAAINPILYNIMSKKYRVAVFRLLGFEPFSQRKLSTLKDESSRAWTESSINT
UniProt P17706, sequence (whole entry, looked up): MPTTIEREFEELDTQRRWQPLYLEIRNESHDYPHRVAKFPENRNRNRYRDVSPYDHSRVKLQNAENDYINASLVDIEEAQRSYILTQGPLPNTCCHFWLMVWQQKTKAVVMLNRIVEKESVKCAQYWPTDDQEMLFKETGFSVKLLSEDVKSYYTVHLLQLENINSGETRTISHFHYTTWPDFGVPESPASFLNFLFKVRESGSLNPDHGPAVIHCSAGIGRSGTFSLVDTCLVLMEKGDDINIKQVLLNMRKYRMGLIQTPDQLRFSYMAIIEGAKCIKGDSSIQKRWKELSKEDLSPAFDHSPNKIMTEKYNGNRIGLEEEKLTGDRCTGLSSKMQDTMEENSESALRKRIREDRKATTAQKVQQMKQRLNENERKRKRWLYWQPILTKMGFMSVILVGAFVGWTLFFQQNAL
UniProt P25103, sequence (whole entry, unmodified, looked up): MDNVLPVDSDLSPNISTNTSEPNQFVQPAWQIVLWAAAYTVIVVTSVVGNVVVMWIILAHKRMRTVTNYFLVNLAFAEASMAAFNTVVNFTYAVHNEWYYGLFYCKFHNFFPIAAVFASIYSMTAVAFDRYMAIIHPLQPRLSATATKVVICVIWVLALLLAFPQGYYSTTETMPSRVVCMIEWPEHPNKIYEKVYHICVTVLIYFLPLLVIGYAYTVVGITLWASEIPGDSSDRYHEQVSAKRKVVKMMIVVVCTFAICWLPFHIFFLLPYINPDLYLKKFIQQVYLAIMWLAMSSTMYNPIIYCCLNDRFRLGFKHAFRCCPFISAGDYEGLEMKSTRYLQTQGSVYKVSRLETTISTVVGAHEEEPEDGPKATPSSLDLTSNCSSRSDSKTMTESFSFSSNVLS
UniProt Q9JJ73, sequence (whole entry, looked up): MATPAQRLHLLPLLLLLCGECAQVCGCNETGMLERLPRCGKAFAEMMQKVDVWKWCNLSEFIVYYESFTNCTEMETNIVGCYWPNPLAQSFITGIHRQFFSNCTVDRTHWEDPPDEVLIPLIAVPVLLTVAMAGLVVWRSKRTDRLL
UniProt P42679, sequence (whole entry, looked up): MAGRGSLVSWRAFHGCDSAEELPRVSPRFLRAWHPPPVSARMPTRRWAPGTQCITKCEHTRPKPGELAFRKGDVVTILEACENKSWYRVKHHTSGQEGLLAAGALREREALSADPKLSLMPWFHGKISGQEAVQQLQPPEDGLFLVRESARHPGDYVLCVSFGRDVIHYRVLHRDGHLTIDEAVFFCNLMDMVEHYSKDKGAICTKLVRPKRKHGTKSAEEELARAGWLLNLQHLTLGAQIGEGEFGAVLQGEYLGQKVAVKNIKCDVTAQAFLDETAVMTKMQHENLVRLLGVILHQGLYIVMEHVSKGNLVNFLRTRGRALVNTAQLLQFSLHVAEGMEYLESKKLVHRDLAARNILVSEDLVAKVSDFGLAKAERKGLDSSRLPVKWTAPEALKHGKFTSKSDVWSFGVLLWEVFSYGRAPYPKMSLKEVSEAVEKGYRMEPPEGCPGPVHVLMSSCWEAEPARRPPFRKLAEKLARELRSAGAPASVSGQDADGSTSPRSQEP
UniProt P32214, sequence (whole entry, looked up): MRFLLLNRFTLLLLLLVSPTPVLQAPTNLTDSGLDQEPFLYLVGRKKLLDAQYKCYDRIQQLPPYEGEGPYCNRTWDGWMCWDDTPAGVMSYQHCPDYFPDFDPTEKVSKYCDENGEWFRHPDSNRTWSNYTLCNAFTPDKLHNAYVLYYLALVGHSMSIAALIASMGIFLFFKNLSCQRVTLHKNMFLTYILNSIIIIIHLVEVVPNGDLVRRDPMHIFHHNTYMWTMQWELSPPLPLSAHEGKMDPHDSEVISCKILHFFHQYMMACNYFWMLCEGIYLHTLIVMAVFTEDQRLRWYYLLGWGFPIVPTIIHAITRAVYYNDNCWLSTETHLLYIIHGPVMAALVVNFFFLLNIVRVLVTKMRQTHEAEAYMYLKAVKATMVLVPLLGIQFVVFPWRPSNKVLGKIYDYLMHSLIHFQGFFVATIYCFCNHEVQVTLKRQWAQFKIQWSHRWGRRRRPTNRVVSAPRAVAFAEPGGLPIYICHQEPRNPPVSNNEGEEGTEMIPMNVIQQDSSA
UniProt P32245, sequence (whole entry, looked up): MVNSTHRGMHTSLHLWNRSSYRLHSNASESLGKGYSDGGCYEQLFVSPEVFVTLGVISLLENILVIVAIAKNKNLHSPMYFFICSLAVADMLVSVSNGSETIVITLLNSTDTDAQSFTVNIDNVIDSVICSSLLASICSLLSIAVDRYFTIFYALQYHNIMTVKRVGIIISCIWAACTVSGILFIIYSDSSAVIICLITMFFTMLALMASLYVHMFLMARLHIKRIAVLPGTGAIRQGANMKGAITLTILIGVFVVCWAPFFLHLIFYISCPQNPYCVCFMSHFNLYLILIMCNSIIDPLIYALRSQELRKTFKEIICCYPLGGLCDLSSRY

Under “percent of control”, C=CC(=O)Nc1cccc(Cn2ncc3cnc(Nc4cnn(CCOC)c4)nc32)c1 is recorded as 100% (PHKG1 human; binding, KINOMEscan; 100 nM; lower = stronger binding).
For CSCC[C@H](NC(=O)[C@H](CC(C)C)NC(=O)CNC(=O)[C@H](Cc1ccccc1)NC(=O)[C@H](Cc1ccccc1)NC(=O)[C@@H](N)CCC(N)=O)C(N)=O, the Emax was 66 ± 7% (TACR1 (Homo sapiens, UniProt P25103, N85Q); agonist; concentration not given).
The Emax of CC1(C)C[C@@H](Nc2cccc(-c3sc(C(=O)O)c(OCC(=O)O)c3Cl)c2)CCN1S(=O)(=O)Cc1cccc(NC(=O)CN2CCC(c3ccc4c(c3)oc(=O)n4C3CCC(=O)NC3=O)CC2)c1 (stereo partly shown) is reported as 10% (PTPN2 (Homo sapiens, UniProt P17706); protein degradation, degrader, HiBiT; B16-F10 cells; 24 h).
For C=CCn1c(=O)c2ccccc2n2c(SCC(=O)NC3CC3)nnc12, the Emax was 120 ± 1% (CHRM4; receptor activation, agonist; concentration not given, 16 h).
The Vz/F of C=C(NC(=O)c1csc(-c2nc3c(cc2O)-c2nc(cs2)C(=O)NC(C(C)O)C(=O)NC(=C(C)OC)c2nc(cs2)C(=O)NC2c4nc(cs4)C(=O)NC(COC(=O)c4c5c6c(cccc6n4O)COC(=O)C(OC4CC(C)(O)C(N(C)C)C(C)O4)C2OC5)c2nc-3cs2)n1)C(N)=O (stereo not shown) is reported as 17.5 L/kg (Sprague-Dawley rat, female, plasma; intravenous infusion, 6 mg/kg, multiple doses, day 1).
For C=CCn1c(=O)c2ccccc2n2c(SCC(=O)Nc3ccc(NC(C)=O)cc3)nnc12, the Emax was 128 ± 2% (CHRM4; receptor activation, agonist; concentration not given, 16 h).
The Emax of CC(C)C[C@H](NC(=O)[C@H](CCCN)NC(=O)CNC(=O)[C@@H](NC(=O)[C@H](C)NC(=O)[C@@H]1CSCSC[C@H](NC(=O)CC[C@H](N)C(=O)O)C(=O)N[C@@H](CC(N)=O)C(=O)N[C@@H]([C@@H](C)O)C(=O)N[C@@H](C)C(=O)N[C@@H]([C@@H](C)O)C(=O)N1)[C@@H](C)O)C(=O)N[C@@H](C)C(=O)N[C@@H](CCC(=O)O)C(=O)N[C@@](C)(Cc1ccccc1)C(=O)N[C@@H](CC(C)C)C(=O)N[C@H](C(=O)N[C@@H](CCCNC(=N)N)C(=O)N[C@@H](CO)C(=O)N[C@@H](CO)C(=O)N[C@@H](CC(N)=O)C(=O)N(C)[C@@H](CC(N)=O)C(=O)N[C@@H](Cc1ccccc1)C(=O)NCC(=O)N1CCC[C@H]1C(=O)N[C@@H](CCCCNC(=O)CC[C@H](NC(=O)CC[C@H](NC(=O)CCCCCCCCCCCCCCCCCCC(=O)O)C(=O)O)C(=O)O)C(=O)N[C@@H](CC(C)C)C(=O)N1CCC[C@H]1C(=O)N1CCC[C@H]1C(=O)N[C@H](C(=O)N[C@@H](CCC(=O)O)C(=O)N[C@H](C(=O)NCC(=O)N[C@@H](CO)C(=O)N[C@@H](CC(N)=O)C(=O)N[C@H](C(=O)N[C@@H](Cc1ccc(O)cc1)C(N)=O)[C@@H](C)O)C(C)C)[C@@H](C)O)C(C)C is reported as over 80% (Amylin receptor AMY3; CALCR/RAMP3 (Rattus norvegicus, UniProt P32214+Q9JJ73); cAMP, agonist; UMUC3).
COc1ccc(C(=O)c2c(C(=O)NCCCN(C)C)oc3ccc(Cl)cc3c2=O)cc1OC has an Emax of 83.1 ± 3.5% (GHSR (Homo sapiens, UniProt Q92847, R199A); intracellular Ca2+, agonist; HEK293T transiently transfected).
With COc1cc(C2C(NC(=O)c3ccc(NC(=O)OC(C)(C)C)cc3)(C(=O)O)C(c3ccc(OC(=O)c4cccs4)c(OC)c3)C2(NC(=O)c2ccc(NC(=O)OC(C)(C)C)cc2)C(=O)O)ccc1OC(=O)c1cccs1 (stereo not shown) the Emax was 2.76 ± 2.54% (Glucagon-like peptide 1 receptor, with β-arrestin 2 (GLP1R, Homo sapiens, UniProt P43220); β-arrestin 2 recruitment, agonist, BRET; reference: GLP-1 response).
CC[C@H](C)[C@@H]1NC(=O)[C@H](Cc2ccccc2)NC(=O)[C@H](CCC(=O)O)NC(=O)[C@H](CCCNC(=N)N)NC(=O)CNC(=O)[C@@H](NC(=O)[C@H](CC(C)C)NC(=O)[C@H](CCCNC(=N)N)NC(=O)[C@@H](NC(=O)CNC(=O)[C@H](Cc2ccc(O)cc2)NC(=O)[C@@H]2CCCN2C(=O)[C@H](C)NC(=O)[C@H](C)NC(=O)[C@@H](N)CCCNC(=N)N)C(C)C)CSSC[C@@H]2NC(=O)[C@@H](NC(=O)[C@H](CO)NC(=O)[C@H](CO)NC(=O)[C@H](CO)NC(=O)[C@H](CC(C)C)NC(=O)CNC(=O)[C@H](C)NC(=O)[C@H](CC(C)C)NC(=O)[C@@H](NC(=O)[C@@H](N)CC(=O)O)C(C)C)CSSC[C@H](NC(=O)CNC(=O)[C@H](Cc3c[nH]c4ccccc34)NC(=O)[C@H](CCCCN)NC2=O)C(=O)N[C@@H](CO)C(=O)N[C@@H](CCCCN)C(=O)N[C@@H](CO)C(=O)N[C@@H](CCC(=O)O)C(=O)N[C@@H]([C@@H](C)CC)C(=O)N[C@@H](CO)C(=O)N[C@@H](CO)C(=O)N[C@@H](CC(C)C)C(=O)N[C@H](C(=O)O)CSSC[C@@H](C(=O)NCC(=O)NCC(=O)N[C@@H](CO)C(=O)N[C@@H](CCCNC(=N)N)C(=O)N[C@@H](Cc2c[nH]c3ccccc23)C(=O)O)NC(=O)[C@H]([C@@H](C)O)NC(=O)[C@H](Cc2ccccc2)NC(=O)[C@H]([C@@H](C)CC)NC(=O)[C@H](C(C)C)NC(=O)[C@H](C)NC(=O)[C@H](CCCNC(=N)N)NC1=O has an Emax of 77.9 ± 6.09% (RXFP4 (Homo sapiens, UniProt Q8TDU9, D104A); HEK-293T; reference: wild type).
CCCC[C@H](NC(=O)CCCCCCCNC(=O)CN1CCN(CC(=O)O)CCN(CC(=O)O)CC1)C(=O)N[C@H]1CC(=O)NCCCC[C@@H](C(N)=O)NC(=O)[C@H](Cc2c[nH]c3ccccc23)NC(=O)[C@H](CCCNC(=N)N)NC(=O)[C@@H](Cc2ccccc2)NC(=O)[C@H](Cc2c[nH]cn2)NC1=O [technetium-99m labelled] gave a tissue uptake of 0.06 ± 0.07 %ID/g (C57 mouse, lung; intravenous, 0.037 MBq, 24 h).
For COC1CN([C@H]2CC[C@H]([C@@]3(C)Oc4c(Cl)cc(C(=O)NCc5c(SC)cc(C)[nH]c5=O)c(C)c4O3)CC2)C1, “log2 fold change” read 0.0103 (RNA-seq, measured: TMEM37 mouse homolog; mouse, HT-1376 xenograft, whole blood; dose not given; reference: vehicle).
With CCc1cc(O)cc2c(/C=N/NC(=N)NCCc3ccc(Cl)cc3)c[nH]c12 the Emax was 77.7 ± 9.69% (RXFP4 (Homo sapiens, UniProt Q8TDU9, V122A); HEK-293T; reference: wild type).
O=C(COc1cc(Cl)ccc1Cl)Nc1cc(C2CC2)nn1C1CCOCC1 has an Emax of 82% (Kir3.1/Kir3.2; thallium flux, activator; HEK293; reference: standard compound).
The remaining binding of Nc1ncc(-c2cc(-c3cnn(CC(F)(F)F)c3)ncc2F)nc1C(=O)NC1CNCC(F)C1 (stereo not shown) is reported as 65% (PLK3; KINOMEscan; 1 µM; reference: DMSO control).
For Cc1nn(-c2cccc(N)c2)c(=O)c2cnc(Nc3ccc(N4CCNCC4)cc3)nc12, the IC50 was over 10 µM (MATK (Homo sapiens, UniProt P42679); kinase activity, inhibitor, SelectScreen kinase profiling).
For CCc1cc(NC(=O)COc2cc(Cl)ccc2Cl)n(CC(F)(F)F)n1, the Emax was 80% (Kir3.1/Kir3.2; thallium flux, activator; HEK293; reference: standard compound).
The Emax of CCCC[C@H](NC(C)=O)C(=O)N[C@H]1CCC(=O)NCCC[C@@H](C(=O)N[C@@H](C(=O)N2CCC[C@@H]2C(N)=O)C(C)C)NC(=O)[C@H](Cc2c[nH]c3ccccc23)NC(=O)[C@H](CCCNC(=N)N)NC(=O)[C@@H](Cc2ccc(F)cc2)NC(=O)[C@@H]2CCCN2C1=O is reported as 90% (MC4R (Homo sapiens, UniProt P32245); cAMP, agonist; CHO-K1).
O=C(COc1cccc(Cl)c1Cl)Nc1cc(C2CC2)nn1CC(F)(F)F gave an Emax of 68% (Kir3.1/Kir3.2; thallium flux, activator; HEK293; reference: standard compound).
The cAMP luminescence of CC(C)Oc1cc(Cl)ccc1CNc1cc(-c2ccccc2)nc2ncnn12 is reported as 2980 a.u. and 1460 a.u. and 1600 a.u. and 7260 a.u. and 12400 a.u. and 1670 a.u. and 4100 a.u. (GPR3 (Homo sapiens, UniProt P46089); cAMP reporter; human cells; 30 µM; higher is more cAMP).
CNC(=N)NCCC[C@H](NC(=O)[C@H](CC(C)C)NC(=O)NNC(=O)[C@H](Cc1ccccc1)NC(=O)[C@@H](NC(=O)[C@H](CC(N)=O)NC(=O)[C@@H]1C[C@@H](O)CN1C(=O)[C@@H](Cc1ccc(O)cc1)NC(C)=O)[C@@H](C)O)C(=O)N[C@@H](Cc1c[nH]c2ccccc12)C(N)=O has an Emax of 63.7% (KiSS-1 receptor (KISS1R, Homo sapiens, UniProt Q969F8, D242A); inositol phosphate, agonist; HEK293).
The Emax of O=C(COc1cccc(Cl)c1Cl)Nc1cc(C2CC2)nn1C1CCOCC1 is reported as 70% (Kir3.1/Kir3.2; thallium flux, activator; HEK293; reference: standard compound).

Repeated from above:
The Emax of CC1(C)C[C@@H](Nc2cccc(-c3sc(C(=O)O)c(OCC(=O)O)c3Cl)c2)CCN1S(=O)(=O)Cc1cccc(NC(=O)CN2CCC(c3ccc4c(c3)oc(=O)n4C3CCC(=O)NC3=O)CC2)c1 (stereo partly shown) is reported as 10% (PTPN2 (Homo sapiens, UniProt P17706); protein degradation, degrader, HiBiT; B16-F10 cells; 24 h).
CCCC[C@H](NC(=O)CCCCCCCNC(=O)CN1CCN(CC(=O)O)CCN(CC(=O)O)CC1)C(=O)N[C@H]1CC(=O)NCCCC[C@@H](C(N)=O)NC(=O)[C@H](Cc2c[nH]c3ccccc23)NC(=O)[C@H](CCCNC(=N)N)NC(=O)[C@@H](Cc2ccccc2)NC(=O)[C@H](Cc2c[nH]cn2)NC1=O [technetium-99m labelled] gave a tissue uptake of 0.06 ± 0.07 %ID/g (C57 mouse, lung; intravenous, 0.037 MBq, 24 h).
